Experimental data pooled from the literature.
Every numbered part comes from another study and shows a few of its results, in no order. Several values in a cell are separate wells, animals, samples, runs or records.
Chain of UniProt Q9BVS4 (whole entry, looked up): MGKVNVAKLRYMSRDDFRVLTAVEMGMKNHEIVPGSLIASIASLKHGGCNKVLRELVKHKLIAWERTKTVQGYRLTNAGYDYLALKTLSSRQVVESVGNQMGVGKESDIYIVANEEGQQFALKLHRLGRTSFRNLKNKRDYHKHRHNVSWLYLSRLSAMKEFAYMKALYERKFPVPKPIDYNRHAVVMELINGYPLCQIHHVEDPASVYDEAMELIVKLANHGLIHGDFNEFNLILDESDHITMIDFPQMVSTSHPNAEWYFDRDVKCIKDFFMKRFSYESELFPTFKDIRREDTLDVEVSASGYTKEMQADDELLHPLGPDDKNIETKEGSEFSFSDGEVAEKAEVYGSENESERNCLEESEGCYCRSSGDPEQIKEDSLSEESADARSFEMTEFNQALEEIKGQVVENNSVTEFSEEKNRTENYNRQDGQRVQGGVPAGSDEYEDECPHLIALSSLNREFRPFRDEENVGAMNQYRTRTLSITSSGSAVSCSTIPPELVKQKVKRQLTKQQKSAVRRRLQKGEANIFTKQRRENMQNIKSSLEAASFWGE
Chain of UniProt P49336 (whole entry, looked up): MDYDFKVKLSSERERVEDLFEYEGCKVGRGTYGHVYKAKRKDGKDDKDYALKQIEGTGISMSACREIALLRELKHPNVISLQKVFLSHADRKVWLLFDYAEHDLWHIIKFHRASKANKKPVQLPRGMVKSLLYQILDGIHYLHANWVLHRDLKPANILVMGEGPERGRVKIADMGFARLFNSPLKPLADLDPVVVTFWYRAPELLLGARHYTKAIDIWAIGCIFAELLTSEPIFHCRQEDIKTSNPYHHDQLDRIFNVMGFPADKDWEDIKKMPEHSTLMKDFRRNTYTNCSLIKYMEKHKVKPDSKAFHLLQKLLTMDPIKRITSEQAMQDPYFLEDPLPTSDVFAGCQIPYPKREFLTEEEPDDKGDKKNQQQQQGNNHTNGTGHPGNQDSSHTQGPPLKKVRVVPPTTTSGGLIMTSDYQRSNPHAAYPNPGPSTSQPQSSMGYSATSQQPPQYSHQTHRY
Chain of UniProt P08922 (whole entry, looked up): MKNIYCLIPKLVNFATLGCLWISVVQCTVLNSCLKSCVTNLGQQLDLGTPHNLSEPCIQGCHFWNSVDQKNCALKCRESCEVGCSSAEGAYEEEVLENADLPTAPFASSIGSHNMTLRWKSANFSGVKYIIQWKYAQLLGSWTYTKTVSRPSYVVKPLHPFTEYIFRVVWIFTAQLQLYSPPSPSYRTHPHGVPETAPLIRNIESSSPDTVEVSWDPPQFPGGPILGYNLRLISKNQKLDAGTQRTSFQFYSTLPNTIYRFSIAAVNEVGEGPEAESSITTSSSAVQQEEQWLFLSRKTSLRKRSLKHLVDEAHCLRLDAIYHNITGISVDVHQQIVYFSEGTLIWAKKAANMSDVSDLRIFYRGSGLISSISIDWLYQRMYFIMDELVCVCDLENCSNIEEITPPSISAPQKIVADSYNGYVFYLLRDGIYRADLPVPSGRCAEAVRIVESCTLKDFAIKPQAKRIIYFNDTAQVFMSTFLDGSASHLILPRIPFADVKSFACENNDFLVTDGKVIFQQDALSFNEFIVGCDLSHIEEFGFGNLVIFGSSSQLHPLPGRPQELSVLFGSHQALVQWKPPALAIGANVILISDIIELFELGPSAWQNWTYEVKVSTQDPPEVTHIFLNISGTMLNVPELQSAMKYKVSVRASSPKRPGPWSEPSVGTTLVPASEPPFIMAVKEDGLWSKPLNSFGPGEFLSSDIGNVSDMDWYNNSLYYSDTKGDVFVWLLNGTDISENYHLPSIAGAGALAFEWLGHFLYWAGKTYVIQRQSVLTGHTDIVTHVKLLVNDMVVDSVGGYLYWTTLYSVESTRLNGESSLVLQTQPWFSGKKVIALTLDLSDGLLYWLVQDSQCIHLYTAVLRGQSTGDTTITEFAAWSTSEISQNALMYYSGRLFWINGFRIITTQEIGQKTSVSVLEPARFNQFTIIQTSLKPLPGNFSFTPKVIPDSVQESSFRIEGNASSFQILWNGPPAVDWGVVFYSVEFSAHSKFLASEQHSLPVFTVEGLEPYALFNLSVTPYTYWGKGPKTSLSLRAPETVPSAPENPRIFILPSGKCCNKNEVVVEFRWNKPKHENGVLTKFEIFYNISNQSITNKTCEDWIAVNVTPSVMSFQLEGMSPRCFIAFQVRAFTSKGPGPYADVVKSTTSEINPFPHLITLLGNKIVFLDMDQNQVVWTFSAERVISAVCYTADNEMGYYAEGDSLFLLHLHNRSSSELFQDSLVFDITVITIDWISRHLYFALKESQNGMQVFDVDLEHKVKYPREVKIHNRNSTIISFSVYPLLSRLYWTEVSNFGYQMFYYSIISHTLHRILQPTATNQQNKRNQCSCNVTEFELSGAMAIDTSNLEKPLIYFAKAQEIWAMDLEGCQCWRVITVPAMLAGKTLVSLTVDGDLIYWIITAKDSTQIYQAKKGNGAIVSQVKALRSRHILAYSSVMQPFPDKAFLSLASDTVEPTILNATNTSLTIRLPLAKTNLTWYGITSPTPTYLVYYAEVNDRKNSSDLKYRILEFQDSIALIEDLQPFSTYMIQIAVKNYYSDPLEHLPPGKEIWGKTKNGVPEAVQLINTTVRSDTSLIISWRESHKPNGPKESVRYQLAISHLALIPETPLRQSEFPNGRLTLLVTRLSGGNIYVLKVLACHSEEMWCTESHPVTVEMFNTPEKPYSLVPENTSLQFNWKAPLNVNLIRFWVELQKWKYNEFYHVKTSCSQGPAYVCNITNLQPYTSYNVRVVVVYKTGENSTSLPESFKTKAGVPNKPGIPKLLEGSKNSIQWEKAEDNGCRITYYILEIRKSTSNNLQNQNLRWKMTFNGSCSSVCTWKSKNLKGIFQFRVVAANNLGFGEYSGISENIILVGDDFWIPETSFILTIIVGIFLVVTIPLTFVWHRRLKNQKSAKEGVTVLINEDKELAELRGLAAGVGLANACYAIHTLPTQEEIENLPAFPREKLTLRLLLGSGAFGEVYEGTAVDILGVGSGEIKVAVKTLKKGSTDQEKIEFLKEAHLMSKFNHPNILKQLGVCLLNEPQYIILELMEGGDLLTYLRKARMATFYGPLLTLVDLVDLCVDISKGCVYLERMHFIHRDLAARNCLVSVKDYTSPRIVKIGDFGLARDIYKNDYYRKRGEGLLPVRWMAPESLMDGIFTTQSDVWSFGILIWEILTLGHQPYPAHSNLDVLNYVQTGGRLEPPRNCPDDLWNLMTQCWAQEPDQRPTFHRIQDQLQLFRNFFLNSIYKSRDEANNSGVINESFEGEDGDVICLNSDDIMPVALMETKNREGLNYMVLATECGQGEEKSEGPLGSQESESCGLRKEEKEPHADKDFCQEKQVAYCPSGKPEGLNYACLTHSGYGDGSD
Chain of UniProt P07949 (whole entry, unmodified, looked up): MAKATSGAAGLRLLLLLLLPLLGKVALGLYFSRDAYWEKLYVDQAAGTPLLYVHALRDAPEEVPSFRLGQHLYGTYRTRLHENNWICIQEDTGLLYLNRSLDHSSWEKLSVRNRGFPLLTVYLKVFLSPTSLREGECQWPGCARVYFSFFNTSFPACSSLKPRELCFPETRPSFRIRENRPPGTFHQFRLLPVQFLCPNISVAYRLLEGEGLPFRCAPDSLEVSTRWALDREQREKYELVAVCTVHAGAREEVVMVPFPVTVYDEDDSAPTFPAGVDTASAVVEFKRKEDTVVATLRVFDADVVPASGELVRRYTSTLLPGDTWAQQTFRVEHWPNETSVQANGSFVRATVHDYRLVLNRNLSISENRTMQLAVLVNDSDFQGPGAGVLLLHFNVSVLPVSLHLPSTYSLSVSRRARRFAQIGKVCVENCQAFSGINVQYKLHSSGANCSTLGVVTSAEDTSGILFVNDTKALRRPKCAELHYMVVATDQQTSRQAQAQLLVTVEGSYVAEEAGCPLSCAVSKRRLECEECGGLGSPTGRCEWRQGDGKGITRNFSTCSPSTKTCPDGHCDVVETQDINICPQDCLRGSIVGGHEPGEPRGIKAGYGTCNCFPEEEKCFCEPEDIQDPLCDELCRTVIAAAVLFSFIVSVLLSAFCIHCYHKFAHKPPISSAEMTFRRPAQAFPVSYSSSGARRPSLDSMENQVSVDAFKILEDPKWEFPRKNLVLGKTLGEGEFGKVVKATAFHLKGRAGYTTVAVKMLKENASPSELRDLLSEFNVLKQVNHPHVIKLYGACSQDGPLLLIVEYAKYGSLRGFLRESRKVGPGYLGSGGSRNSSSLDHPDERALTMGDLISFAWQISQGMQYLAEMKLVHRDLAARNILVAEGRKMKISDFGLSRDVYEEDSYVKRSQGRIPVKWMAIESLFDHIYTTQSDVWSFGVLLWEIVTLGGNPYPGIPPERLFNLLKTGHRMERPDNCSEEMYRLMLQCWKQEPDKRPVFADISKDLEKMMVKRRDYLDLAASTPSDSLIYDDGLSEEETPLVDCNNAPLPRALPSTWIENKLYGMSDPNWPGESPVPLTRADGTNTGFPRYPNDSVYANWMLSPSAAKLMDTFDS

Block 1
SMILES: Cn1nc(C(F)(F)F)cc1-c1cnc(N2CCc3cc(S(=O)(=O)Nc4c(F)cc(Cl)cc4F)cc(N4CCCC4=O)c32)nc1
Technique: competition with immobilised ligand
Tested at: 1 µM
The remaining binding was 100% (RET (Homo sapiens, UniProt P07949, V804L); cell-free assay).
For Cyclin-dependent kinase 4, with cyclin D1 (CDK4, Homo sapiens, UniProt P11802); cell-free assay: remaining binding read 81%.
For ROS1 (Homo sapiens, UniProt P08922); cell-free assay: remaining binding read 100%.
TSSK3 (Homo sapiens, UniProt Q96PN8); cell-free assay — remaining binding: 94%.
It gave 96% for remaining binding (CDK8 (Homo sapiens, UniProt P49336); cell-free assay).
It gave 89% for remaining binding (Tyrosine-protein kinase ABL1, phosphorylated (ABL1, Homo sapiens, UniProt P00519, E255K); binding).
The remaining binding was 100% (EGFR (Homo sapiens, UniProt P00533); cell-free assay).
RIOK2 (Homo sapiens, UniProt Q9BVS4); cell-free assay — remaining binding: 89%.

Block 2
Cell line: mouse MPNST tumor cells
Technique: high-content nuclear imaging
Refers to: cell number
Tested at: 10 µM
Time: 12 h
Notes: mean of 2 replicates
Relative to: plate mean
Direction: higher = more cells
The nuclei count of N#CC(c1ccc(Cl)cc1)c1c(Cl)cc(-n2ncc(=O)[nH]c2=O)cc1Cl (centres unmarked) is reported as 0.506 z-score.
CC(C)(C)c1nc2c3cc[nH]c(=O)c3c3cc(F)ccc3c2[nH]1 gave a nuclei count of -1.49 z-score.
With CCc1ccc(OCc2ccccc2C(=O)Nc2ccc3nc(C)cc(N)c3c2)cc1 the nuclei count was -5.89 z-score.
The nuclei count of CNS(=O)(=O)Cc1ccc2[nH]cc(CCN(C)C)c2c1 is reported as 0.0565 z-score and 2.08 z-score and 3.9 z-score.
CCCCc1ncc(/C=C(\Cc2cccs2)C(=O)O)n1Cc1ccc(C(=O)O)cc1 has a nuclei count of 3.61 z-score.
Nc1nc2c(c(N3CC[C@@H](N)C3)n1)CCCc1ccccc1-2 gave a nuclei count of -0.41 z-score.

Block 3
SMILES: O=C1CCC(N2Cc3cc(C4CCN(Cc5ccccc5)CC4)ccc3C2=O)C(=O)N1 (centres unmarked)
Sample: plasma
The plasma concentration was 68.7 ng/mL and 62.2 ng/mL (rat Sprague Dawley male; intravenous, 1 mg/kg, 1 h).
For ICR mouse, male; intravenous, 1 mg/kg, 4 h: plasma concentration read 20.7 ng/mL and 25.2 ng/mL.
The plasma concentration was 224 ng/mL (male ICR mice; oral, 3 mg/kg, 1 h).
It gave 123 ng/mL and 121 ng/mL for plasma concentration (Sprague Dawley rat, male; intravenous, 1 mg/kg, 0.083 h).
ICR mouse, male; oral, 3 mg/kg, 0.083 h — plasma concentration: 73.7 ng/mL and 30 ng/mL and 45.2 ng/mL.
male ICR mice; oral, 3 mg/kg, 24 h — plasma concentration: “not detected”.
Sprague Dawley rat, male; oral, 3 mg/kg, 2 h — plasma concentration: 80.2 ng/mL and 74.4 ng/mL.
For male Sprague Dawley rats; oral, 3 mg/kg, 2 h: plasma concentration read 63.5 ng/mL.
For ICR mouse, male; oral, 3 mg/kg, 2 h: plasma concentration read 83.6 ng/mL and 122 ng/mL.

Block 4
Target: Phosphorylase b kinase gamma catalytic chain, liver/testis isoform (PHKG2, Homo sapiens, UniProt P15735)
Chain of UniProt P15735 (whole entry, looked up): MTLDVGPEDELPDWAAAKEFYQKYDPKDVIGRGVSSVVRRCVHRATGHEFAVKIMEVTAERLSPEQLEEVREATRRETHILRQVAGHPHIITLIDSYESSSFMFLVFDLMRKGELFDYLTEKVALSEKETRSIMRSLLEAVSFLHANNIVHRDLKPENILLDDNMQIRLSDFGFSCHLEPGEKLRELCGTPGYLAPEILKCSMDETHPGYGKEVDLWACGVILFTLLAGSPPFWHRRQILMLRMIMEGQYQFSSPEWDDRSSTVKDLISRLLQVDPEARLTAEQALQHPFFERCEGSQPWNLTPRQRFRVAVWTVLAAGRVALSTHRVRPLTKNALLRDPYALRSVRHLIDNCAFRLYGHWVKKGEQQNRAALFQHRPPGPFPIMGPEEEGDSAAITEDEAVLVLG
Effect on: enzyme activity
Mode: inhibitor
Tested at: 0.5 µM
Relative to: control
The remaining activity of Nc1ncnc2n[nH]c(Nc3ccc(F)cc3)c12 is reported as 101%.
For Cc1nc(-c2ccccc2)c(-c2ccncc2)o1, the remaining activity was 97.6%.
The remaining activity of O=C1NC(=O)C(c2cn(CCCO)c3ncccc23)=C1c1cnccn1 is reported as 102%.
Cc1cccc(-c2[nH]c(C(C)(C)C)nc2-c2ccc3c(c2)OCO3)n1 has a remaining activity of 107%.
With COc1cc2nccc(Oc3ccc(NC(=S)NC(=O)c4ccccc4C)cc3)c2cc1OC the remaining activity was 110%.
For O=C(Nc1cccc(Nc2cc(Nc3cccc(C(F)(F)F)c3)ncn2)c1)C1CC1, the remaining activity was 101%.
COc1ccc(C(=O)Nc2sc3c(c2C(N)=O)CCCC3)cc1OC has a remaining activity of 106%.
The remaining activity of N#CC(C#N)=C(N)/C(C#N)=C/c1ccc(O)cc1 is reported as 96.7%.
For OCC(O)CCON=C1C(c2c(O)[nH]c3ccccc23)=Nc2ccccc21 (centres unmarked), the remaining activity was 34.9%.
COc1cc2ncnc(Nc3ccc(F)c(Cl)c3)c2cc1OCCCN1CCOCC1 gave a remaining activity of 93.9%.
CN(C)c1ccc(C=C2C(=O)Nc3ccccc32)cc1 has a remaining activity of 95.9%.
The remaining activity of CCOC(=O)c1c(C)[nH]c(/C=C2\C(=O)Nc3ccccc32)c1C is reported as 96.2%.
The remaining activity of COc1cc2ncnc(Nc3ccc(Oc4ccccc4)cc3)c2cc1OC is reported as 100%.
The remaining activity of O=C(CCCc1ccc(-c2ccccc2F)cc1)Nc1ccc(O)cc1 is reported as 102%.
With O=S(=O)(c1cccc2cnccc12)N1CCCNCC1 the remaining activity was 95.4%.

A few entries again (block 1):
For ROS1 (Homo sapiens, UniProt P08922); cell-free assay: remaining binding read 100%.
TSSK3 (Homo sapiens, UniProt Q96PN8); cell-free assay — remaining binding: 94%.
It gave 96% for remaining binding (CDK8 (Homo sapiens, UniProt P49336); cell-free assay).
It gave 89% for remaining binding (Tyrosine-protein kinase ABL1, phosphorylated (ABL1, Homo sapiens, UniProt P00519, E255K); binding).
The remaining binding was 100% (EGFR (Homo sapiens, UniProt P00533); cell-free assay).
RIOK2 (Homo sapiens, UniProt Q9BVS4); cell-free assay — remaining binding: 89%.
